Published values gathered from unrelated publications.
± gives the spread as reported. Values after ≈ are worked out from the molar mass of the structure shown.

The tissue uptake of `CCCC[C@@H]1NC(=O)[C@@H](NC(=O)[C@H](CCC(=O)O)NC(=O)CNC(=O)CN2CCN(CC(=O)O)CCN(CC(=O)O)CCN(CC(=O)O)CC2)CCCCNC(=O)C[C@@H](C(N)=O)NC(=O)[C@H](C(C)C)NC(=O)[C@@H]2CCCN2C(=O)[C@H](CCCNC(=N)N)NC(=O)CNC(=O)[C@H](Cc2c[nH]c3ccccc23)NC(=O)[C@H](CCCNC(=N)N)NC(=O)[C@@H](Cc2ccccc2)NC(=O)[C@H](Cc2c[nH]cn2)NC(=O)[C@H](CCC(=O)O)NC1=O` [indium-111 labelled] is reported as 0.05 ± 0.01 %ID/g (C57 mice, B16/F10 lung metastatic melanoma, pancreas; intravenous, 0.037 MBq, 2 h).
The AUC(0-t) of `Cc1nc2cccc(OCC(C)(C)C(=O)NC(C)C)c2c(N)c1C(=O)O` is reported as 90.8 ng·h/mL (male Sprague-Dawley rat, plasma; oral, 30 mg/kg, single dose).
`C[C@]1(c2nc3c(C(N)=O)cccc3[nH]2)CCCN1` has a tissue/plasma ratio of 0.57 ± 0.07 (male rhesus monkey (Macaca mulatta), CSF and plasma; oral, 5 mg/kg; baseline: CSF over plasma).
`COc1cc(OC)c(/C=C/S(=O)(=O)Cc2ccc(OC)c(NCC(=O)O)c2)c(OC)c1` gave a Vss/F of 242 ± 212 L (cancer patients, phase I, plasma; oral, 700 mg twice daily, day 1 cycle 1).
`C[C@@H]1CCN(C(=O)CC#N)C[C@@H]1N(C)c1ncnc2[nH]ccc12` has an unbound fraction of 0.781 (equilibrium dialysis; SIDM rats, fresh plasma; 10 µg/mL, 24 h, 37 °C).
For `CC(C)C[C@H](NC(=O)[C@H](CC(C)C)NC(=O)[C@@H](Cc1c[nH]c2ccccc12)NC(=O)[C@H](Cc1ccccc1)NC(=O)[C@@H](NC(=O)[C@@H](N)CCCCN)[C@@H](c1ccccc1)c1c[nH]c2ccccc12)C(N)=O`, the HPLC retention was 44.3 %B (RP-HPLC Kinetex Biphenyl; acetonitrile/water TFA gradient).
`COc1cc2c(cc1OC)CN(CCc1ccc(NC(=O)c3cccc4c(=O)c5cccc(OC)c5[nH]c34)cc1)CC2` has a solubility of 850 ± 60 µg/mL (≈ 1510 µM) (Solutol; 24 h, 37 °C).
Under “faecal radioactivity excretion”, `Oc1ccc2c3c(cnc2c1)-c1ccc(C(F)(F)F)cc1O[C@@H]3c1ccc(OCCN2CC(CF)C2)cc1` is recorded as 61.8% (human, healthy female, fasted, faeces; oral, 400 mg).
For `CS(=O)(=O)n1cc2c(n1)CN([C@H]1CO[C@H](c3cc(F)ccc3F)[C@@H](N)C1)C2`, “concentration at 168 h” read 26.7 nM (healthy male human, plasma; oral, 50 mg single, fasted, geometric mean).
`CNCc1ccc(-c2[nH]c3cc(F)cc4c3c2CCNC4=O)cc1` has a half-life of 13.9 h (human patients, plasma; oral, 40 mg once daily, day 1, single dose, arithmetic mean).
`CCCC[C@H](NC(C)=O)C(=O)N[C@H]1CCC(=O)NC[C@@H](C(=O)N[C@@H](Cc2c[nH]c3ccccc23)C(N)=O)NC(=O)[C@H](CCCNC(=N)N)NC(=O)[C@@H](Cc2ccccc2)NC(=O)[C@H](Cc2c[nH]cn2)NC1=O` has an AUC(0-inf) of 5160 ng·h/mL (male Sprague-Dawley rat, plasma; subcutaneous, 5 mg/kg, multiple doses, once daily).
`CN[C@H](CC(C)C)C(=O)N[C@H]1C(=O)N[C@@H](CC(N)=O)C(=O)N[C@H]2C(=O)N[C@H]3C(=O)N[C@H](C(=O)N[C@H](C(=O)O)c4cc(O)cc(O)c4-c4cc3ccc4O)[C@H](O)c3ccc(c(Cl)c3)Oc3cc2cc(c3O[C@@H]2O[C@H](CO)[C@@H](O)[C@H](O)[C@H]2O[C@H]2C[C@](C)(N)[C@H](O)[C@H](C)O2)Oc2ccc(cc2Cl)[C@H]1O`: “time above MIC” 84% (microdialysis; pig, Danish Landrace, cancellous bone; intravenous, 1000 mg over 100 min, 450 min dosing interval, added: 2.0 µg/mL MIC; baseline: dosing interval).
`CC(C)C[C@H]1C(=O)NCc2ccc([nH]2)CN[C@@H](Cc2ccccc2)C(=O)N[C@@H](C)C(=O)N1C` has a Papp of 7.59 ×10⁻⁶ cm/s (PAMPA; 100 µM, 17 h, pH 6.4).

Excerpt of the above:
`COc1cc(OC)c(/C=C/S(=O)(=O)Cc2ccc(OC)c(NCC(=O)O)c2)c(OC)c1` gave a Vss/F of 242 ± 212 L (cancer patients, phase I, plasma; oral, 700 mg twice daily, day 1 cycle 1).
